Assay results pooled from the literature.
Compare with care: the assays were run in different laboratories.

SMILES | cell line | test | setting | scale | selectivity ratio
CS(=O)(=O)c1sc(NC(=O)Nc2ccc(Cl)cc2)c2c1C=CCC2 | NUPR1 wild-type PDAC cells | cell viability |  | baseline: wild-type over NUPR1 knock-out | 2 to 3
Cc1cnc2c(ccc3c(C)c(C)cnc32)c1C.O=C([O-])Cc1ccccc1Nc1c(Cl)cccc1Cl.O=C([O-])Cc1ccccc1Nc1c(Cl)cccc1Cl.[Cu+2] | HMLER | MTT |  | baseline: HMLER over HMLER-shEcad | 9 fold
N=C(N/N=C/c1ccc2ccc3cccc4ccc1c2c34)N/N=C/c1ccc2ccc3cccc4ccc1c2c34 | PANC-1 | crystal violet | 72 h | baseline: IC50 hTERT-HPNE over IC50 PANC-1 | 1.2
CCC(C(=O)O)C1CCC(C)C(C(C)C(O)C(C)C(=O)C(CC)C2OC3(C=CC(NCc4cn(CCCO)nn4)C4(CCC(C)(C5CCC(O)(CC)C(C)O5)O4)O3)C(C)CC2C)O1 (centres unmarked) | HMLER | cell proliferation |  | baseline: IC50 CD24high/CD44low over IC50 CD24low/CD44high | 2.7
Cc1cnc(Nc2cc(C)c(C)c(C)c2)nc1Nc1ccc2oc(=O)[nH]c2c1 | human CD3+ T and CD56+ NK cells | IL-12-induced STAT4 phosphorylation |  | baseline: IC50 non-JAK1 over JAK1 pathways | 23.5 fold
CCC(C(=O)O)C1CCC(C)C(C(C)C(O)C(C)C(=O)C(CC)C2OC3(C=CC(NCc4cn(C56CC7CC(CC(C7)C5)C6)nn4)C4(CCC(C)(C5CCC(O)(CC)C(C)O5)O4)O3)C(C)CC2C)O1 (centres unmarked) | HMLER | cell proliferation |  | baseline: IC50 CD24high/CD44low over IC50 CD24low/CD44high | 15
[Cl][Au]1[P](c2ccccc2)(c2ccccc2)C[P](c2ccccc2)(c2ccccc2)[Au]([Cl])[P](c2ccccc2)(c2ccccc2)C[P]1(c1ccccc1)c1ccccc1 | L929 and HCT-116 | trypan blue exclusion |  | baseline: IC50 L929 over IC50 HCT-116 | 1.3
N=C(N/N=C/c1cncnc1)N/N=C/c1cncnc1 | PANC-1 | crystal violet | 72 h | baseline: IC50 hTERT-HPNE over IC50 PANC-1 | 3.5
C#CCCCC(O)/C=C/C(=O)NC1(c2ccc(-c3nc4ccn5c(=O)[nH]nc5c4cc3-c3ccccc3)cc2)CCC1 (centres unmarked) | MDA-MB-468, KIFC1 or Grsf1 knockdown |  |  | baseline: EC50 cpd over EC50 MK-2206 | increased
N=C(N/N=C/c1cc2ccccc2[nH]1)N/N=C/c1cc2ccccc2[nH]1 | PANC-1 | crystal violet | 72 h | baseline: IC50 IMR-90 over IC50 PANC-1 | 0.8
CCC(C(=O)O)C1CCC(C)C(C(C)C(O)C(C)C(=O)C(CC)C2OC3(C=CC(NCc4cn(CCOCCOCCOC)nn4)C4(CCC(C)(C5CCC(O)(CC)C(C)O5)O4)O3)C(C)CC2C)O1 (centres unmarked) | HMLER | cell proliferation |  | baseline: IC50 CD24high/CD44low over IC50 CD24low/CD44high | 2.3
